Assay results collected from several papers.
Numbers after ± are the reported error.

SMILES | cell line | assay | conditions | viability
CCC(=O)NCc1ccccc1 | DH82 | cell growth or viability, MTT | 200 µM, 24 h | 98.6%
C=CC(=O)Nc1cccc2c1cc(C)n2-c1nc2c(c(NCc3ccccc3)n1)CCCC2 | Huh-7 cells, uninfected | – | 0.1 µM, 5 days | 95 ± 2%
C=CS(=O)(=O)NCCCCCCCCCCOCc1cn(CCCCCCCCCCNS(=O)(=O)C=C)nn1 | L929 | cell growth or viability, resazurin | 50 µM, 72 h | 0.9%
N#Cc1c(NC(=O)CN2CCOCC2)sc2c1CCC(c1ccccc1)C2 (centres unmarked) | LoVo | cell growth or viability, LDH | 100 µg/mL, 24 h | 79.5%
C=CS(=O)(=O)NCCCCOCc1cn(CCCCNS(=O)(=O)C=C)nn1 | L929 | cell growth or viability, resazurin | 50 µM, 72 h | 87.8%
CC(C)=CCc1cc(-c2coc3cc(O)c(CC=C(C)C)c(O)c3c2=O)ccc1O | SW480 | cell growth or viability, MTT | 25 µg/mL | 152%
C[C@@H]1Cc2cc(C(=O)C3=C(O)C(=O)N(CCc4ccccc4)[C@@H]3c3cccc(OCc4ccccc4)c3)ccc2O1 | HUVEC | MTT | up to 100 µM, 24 h, serum-free, 0.05% BSA | > 75%
CC(C)=CCc1c2c(c(O)c3c(=O)c(-c4ccc(O)cc4)coc13)CC(C(C)(C)O)O2 (centres unmarked) | SW480 | cell growth or viability, MTT | 6.25 µg/mL | 143%
CC12CCCC(n3cc(C(=O)N4CCCC(N)C4)nn3)(C1)C1CC(C)(C)C1CC2 (centres unmarked) | HT-29 | – | 0.5 µM, 72 h, without NAC pretreatment | 72.6%
COc1ccc([C@@H]2CC(=O)c3c(O)cc(O[C@@H]4O[C@H](CO[C@@H]5O[C@@H](C)[C@H](O)[C@@H](O)[C@H]5O)[C@@H](O[C@H]5O[C@H](CO)[C@@H](O)[C@H](O)[C@H]5O)[C@H](O)[C@H]4O)cc3O2)cc1O | MRC5 | cell growth or viability, MTS | 50 µg/mL, 72 h | 72.1%
O=c1[nH]cc(C(c2cccc(Cl)c2)c2c[nH]c(=O)[nH]c2=O)c(=O)[nH]1 | Mo7e | cell growth or viability, WST-1 | 1 µg/mL, 24 h | > 90%
COc1cc2c(cc1O)[C@]1(O)C(=O)c3c(O)cc4c(c3O[C@@H]1CO2)C=CC(C)(C)O4 | SW480 | cell growth or viability, MTT | 12.5 µg/mL | 159%
Cc1ccc(C(C)C)cc1.Oc1ccccc1C=NNC1=Nc2ccccc2-c2[nH]c3ccc(Br)cc3c2C1.[Cl-].[Cl][Os+] | SW480 | annexin V/PI flow cytometry | 5 µM, 48 h | 63%
COc1ccc(-c2coc3c(CC=C(C)C)c(O)c(CC=C(C)C)c(O)c3c2=O)cc1O | SW480 | cell growth or viability, MTT | 25 µg/mL | 72%
C=CS(=O)(=O)NCCCCCCCCOCc1cn(CCCCCCCCNS(=O)(=O)C=C)nn1 | L929 | cell growth or viability, resazurin | 50 µM, 72 h | 1.2%
COc1ccc([C@@H]2CC(=O)c3c(O)cc(O[C@@H]4O[C@H](CO[C@@H]5O[C@@H](C)[C@H](O)[C@@H](O)[C@H]5O)[C@@H](O)[C@H](O)[C@H]4O)cc3O2)cc1O | MRC5 | cell growth or viability, MTS | 100 µg/mL, 72 h | 67.7%
Cc1ccccc1C(c1c[nH]c(=O)[nH]c1=O)c1c[nH]c(=O)[nH]c1=O | Mo7e | cell growth or viability, WST-1 | 1 µg/mL, 24 h | > 90%

Some of these lines once more:
SMILES | cell line | assay | conditions | viability
O=c1[nH]cc(C(c2cccc(Cl)c2)c2c[nH]c(=O)[nH]c2=O)c(=O)[nH]1 | Mo7e | cell growth or viability, WST-1 | 1 µg/mL, 24 h | > 90%
C[C@@H]1Cc2cc(C(=O)C3=C(O)C(=O)N(CCc4ccccc4)[C@@H]3c3cccc(OCc4ccccc4)c3)ccc2O1 | HUVEC | MTT | up to 100 µM, 24 h, serum-free, 0.05% BSA | > 75%
